Results of several laboratories.
Every numbered part comes from another study and shows a few of its results, in no order. Several values in a cell are separate wells, animals, samples, runs or records.

Study 1 — read-out: enzyme activity; mode: inhibitor; concentration: 0.5 µM; baseline: control
Target: Serine/threonine-protein kinase Chk2 (CHEK2, Homo sapiens, UniProt O96017)
Chain of UniProt O96017 (whole entry, looked up): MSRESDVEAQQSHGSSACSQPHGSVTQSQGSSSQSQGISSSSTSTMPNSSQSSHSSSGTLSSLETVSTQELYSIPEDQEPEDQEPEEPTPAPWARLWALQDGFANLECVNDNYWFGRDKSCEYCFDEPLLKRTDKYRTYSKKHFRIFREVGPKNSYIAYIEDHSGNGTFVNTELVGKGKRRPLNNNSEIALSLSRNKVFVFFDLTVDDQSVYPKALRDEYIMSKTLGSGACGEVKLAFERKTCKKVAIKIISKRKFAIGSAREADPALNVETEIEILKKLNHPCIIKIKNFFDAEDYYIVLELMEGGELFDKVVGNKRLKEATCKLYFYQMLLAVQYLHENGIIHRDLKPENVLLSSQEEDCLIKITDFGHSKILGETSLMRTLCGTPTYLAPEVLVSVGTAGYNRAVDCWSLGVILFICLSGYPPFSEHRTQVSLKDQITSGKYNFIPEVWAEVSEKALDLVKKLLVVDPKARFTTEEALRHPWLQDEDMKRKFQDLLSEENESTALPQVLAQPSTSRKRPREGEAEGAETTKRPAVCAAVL
For CCN(CC)C(=O)c1ccc(Nc2nc(OCC3CCCCC3)c3[nH]cnc3n2)cc1, the remaining activity was 71.3%.
O=C(NC(NC(=S)Nc1ccc(F)c([N+](=O)[O-])c1)C(Cl)(Cl)Cl)C(c1ccccc1)c1ccccc1 (stereo not shown) gave a remaining activity of 97.6%.
For O=C1c2ccccc2-c2n[nH]c3cccc1c23, the remaining activity was 34.1%.
With Cn1nc2c3c(cccc31)C(=O)c1ccccc1-2 the remaining activity was 89.8%.
With O=C(Nc1cccc(Nc2nccc(Nc3cccc(C(F)(F)F)c3)n2)c1)C1CC1 the remaining activity was 107%.
Cc1cn(-c2cc(NC(=O)c3ccc(C)c(Nc4nccc(-c5cccnc5)n4)c3)cc(C(F)(F)F)c2)cn1 has a remaining activity of 102%.
For Nc1cccc(-c2cc3c(Oc4cccc(O)c4)ncnc3[nH]2)c1, the remaining activity was 75.8%.
c1ccc(-c2cnc(Nc3ccc(OCCN4CCCC4)cc3)s2)cc1 has a remaining activity of 99.4%.
Cc1nc2cc3nc(-c4cccs4)cnc3cc2n1C has a remaining activity of 94.6%.
The remaining activity of CCOc1nc(NC(=O)Cc2cc(OC)ccc2OC)cc(N)c1C#N is reported as 102%.
For O=c1cc(-c2cccc3c2Sc2ccccc2S3)oc(N2CCOCC2)c1, the remaining activity was 102%.
The remaining activity of C[C@@H]1CCN(C(=O)CC#N)C[C@@H]1N(C)c1ncnc2[nH]ccc12 is reported as 104%.
For O=C1C(Cl)=C(N2C(=O)CCC2=O)C(=O)c2ccccc21, the remaining activity was 95.7%.
Cc1cc2ncc(-c3ccccc3)nc2cc1C has a remaining activity of 96.8%.
COc1cc2ncnc(Nc3ccc(O)c(Br)c3)c2cc1OC has a remaining activity of 51%.
For CN([C@@H](Cc1ccc(OS(=O)(=O)c2cccc3cnccc23)cc1)C(=O)N1CCN(c2ccccc2)CC1)S(=O)(=O)c1cccc2cnccc12, the remaining activity was 101%.
For CN(C)C[C@H]1CCn2c(c(C3=C(c4cn(C)c5ccccc45)C(=O)NC3=O)c3ccccc32)C1, the remaining activity was 95%.
With COc1cc2c(cc1OC)-c1[nH]nc(Nc3cccc(F)c3)c1C2 the remaining activity was 96.5%.
COc1cc2ncnc(Nc3cccc(Cl)c3)c2cc1OC gave a remaining activity of 79.7%.
With N#C/C(=C\c1ccc(O)c(O)c1)C(=O)NCc1ccccc1 the remaining activity was 97.5%.
The remaining activity of N#Cc1c(NC(=O)c2cccc3ccccc23)sc2c1CCCC2 is reported as 98.5%.
With c1ccc(-c2[nH]ncc2-c2ccnc3ccccc23)nc1 the remaining activity was 96.6%.
For CCN(CC)CCNC(=O)c1c(C)[nH]c(/C=C2\C(=O)Nc3ccc(Cl)cc32)c1C, the remaining activity was 6.42%.

Study 2 — cell line: HaCaT; concentration: 100 µM; time: 36 h
The viability of O=C(CCCCCCNC(=O)c1cnc(N(c2ccccc2)c2ccccc2)nc1)NO is reported as 7.55%.
CCOC(=O)c1ccc(C#Cc2ccc3c(c2)C(C)(C)CCS3)nc1 has a viability of 74.6%.
CC(C)NCC(O)COc1ccc(COCCOC(C)C)cc1 (racemic) has a viability of 80.9%.
The viability of CN(C)CCOC(=O)COc1ccc(Cl)cc1 is reported as 98%.
Cn1c(=O)cc(N2CCC[C@@H](N)C2)n(Cc2ccccc2C#N)c1=O gave a viability of 90.7%.
Cc1cc(CC(=O)O)n(C)c1C(=O)c1ccc(Cl)cc1 gave a viability of 95.9%.

Study 3 — read-out: ligand displacement; concentration: 10 µM
Target: D(3) dopamine receptor (DRD3, Homo sapiens, UniProt P35462)
Chain of UniProt P35462 (whole entry, looked up): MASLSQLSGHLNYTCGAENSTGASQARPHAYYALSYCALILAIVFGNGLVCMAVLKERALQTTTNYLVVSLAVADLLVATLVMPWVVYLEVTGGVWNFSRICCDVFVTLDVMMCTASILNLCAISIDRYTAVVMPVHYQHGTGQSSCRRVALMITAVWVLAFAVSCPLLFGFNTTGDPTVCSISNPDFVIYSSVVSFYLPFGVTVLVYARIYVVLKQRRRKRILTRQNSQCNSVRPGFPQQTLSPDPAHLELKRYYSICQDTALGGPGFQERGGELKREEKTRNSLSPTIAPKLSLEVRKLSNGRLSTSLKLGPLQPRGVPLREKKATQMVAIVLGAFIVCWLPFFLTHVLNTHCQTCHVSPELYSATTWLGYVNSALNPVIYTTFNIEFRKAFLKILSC
C[C@H](c1ccnc(Nc2nc3ccc(-c4cc(N(C)C)ncn4)cc3[nH]2)c1)N1CCN(C(=O)CC(F)(F)F)CC1 has an inhibition of 35.5%.
For Nc1cnc(N2CCc3cc(S(=O)(=O)Nc4c(F)cc(Cl)cc4F)cc(N4CCCC4=O)c32)nc1, the inhibition was 7.41%.
For CC1=C(C#N)C(c2ccc3[nH]nc(C)c3c2)C(C#N)=C(C)N1, the inhibition was 18.1%.
CNC(=N)NCCC[C@H](NC(=O)[C@H](CC(C)C)NC(=O)NNC(=O)[C@H](Cc1ccccc1)NC(=O)[C@H](CO)NC(=O)[C@H](CC(N)=O)NC(=O)[C@@H](Cc1ccncc1)NC(=O)[C@H](N)Cc1ccc(O)cc1)C(=O)N[C@@H](Cc1ccccc1)C(N)=O gave an inhibition of -8.85%.
CC(=O)N1CCC(c2ccc(C(=O)NC3=NCCN3)cc2C(F)(F)F)CC1 has an inhibition of -7.75%.
Cc1ncc(-c2cc(Cl)ccc2F)cc1-n1c(=O)n(CC(N)=O)c2ccccc21 gave an inhibition of -17%.
For COc1cc(C(=O)O)ncc1C#Cc1ccccc1NS(=O)(=O)c1cccc2c(N(C)C)ccnc12, the inhibition was -9.21%.
The inhibition of O=C(Nc1ccc(Oc2ccc(F)cc2)cc1)N1CCc2ncccc2[C@H]1c1ccc(F)cc1 is reported as -2.66%.
For N#CC1(c2ccccn2)CCN(Cc2cc(C(=O)N3CCCC3)c(=O)n3ccccc23)CC1, the inhibition was -12.8%.
O=C(NCCCC1CCCCC1)c1ccc(CNC(=O)c2cnn(-c3ccccc3)c2C(F)(F)F)cc1 gave an inhibition of 2.65%.
CN(C)CC#Cc1ccc(OCCCc2sc(N3CCc4cccc(C(=O)Nc5nc6ccccc6s5)c4C3)nc2C(=O)O)c(F)c1 gave an inhibition of 2.01%.
CN1CCN(C(=O)C(C)(C)c2ccc(C(=O)Nc3cn4cc(-c5cc(C(C)(C)C)cc(C(C)(C)C)c5)ccc4n3)cc2)CC1 gave an inhibition of 78.9%.
The inhibition of CCC(=NO)C(C)=Cc1ccc(F)c(C)c1 is reported as 8.6%.
CC[C@H](CC(=O)O)n1c(=O)c2ncccc2n(Cc2cn(C)c3cc(C)cc(C)c23)c1=O has an inhibition of 11.1%.

Study 4 — technique: von Frey test
SMILES: COc1cc(C(=O)OCCCN2CCCN(CCCOC(=O)c3cc(OC)c(OC)c(OC)c3)CC2)cc(OC)c1OC
For mechanical pain; mouse, STZ diabetic neuropathy; intravenous, 30 mg/kg, 5 h post-dose, first injection, day 8: “paw withdrawal threshold” read 0.23 g and 0.17 g and 0.13 g and 0.15 g and 0.32 g.
The “paw withdrawal threshold” was 0.23 g and 0.13 g and 0.29 g and 0.05 g (mechanical pain; mouse, STZ diabetic neuropathy; intravenous, 30 mg/kg, 5 h post-dose, third injection).
mouse, CFA inflammatory pain; subcutaneous, 10 mg/kg, 3 h post-dose, third injection, day 5 — “paw withdrawal threshold”: 0.32 g and 0.23 g and 0.4 g.

Some of these lines once more (study 3):
C[C@H](c1ccnc(Nc2nc3ccc(-c4cc(N(C)C)ncn4)cc3[nH]2)c1)N1CCN(C(=O)CC(F)(F)F)CC1 has an inhibition of 35.5%.
For Nc1cnc(N2CCc3cc(S(=O)(=O)Nc4c(F)cc(Cl)cc4F)cc(N4CCCC4=O)c32)nc1, the inhibition was 7.41%.
For CC1=C(C#N)C(c2ccc3[nH]nc(C)c3c2)C(C#N)=C(C)N1, the inhibition was 18.1%.
CNC(=N)NCCC[C@H](NC(=O)[C@H](CC(C)C)NC(=O)NNC(=O)[C@H](Cc1ccccc1)NC(=O)[C@H](CO)NC(=O)[C@H](CC(N)=O)NC(=O)[C@@H](Cc1ccncc1)NC(=O)[C@H](N)Cc1ccc(O)cc1)C(=O)N[C@@H](Cc1ccccc1)C(N)=O gave an inhibition of -8.85%.
CC(=O)N1CCC(c2ccc(C(=O)NC3=NCCN3)cc2C(F)(F)F)CC1 has an inhibition of -7.75%.
